{"data": "Measured values collected from several papers", "note": "Numbered parts are unrelated; each lists some results of a single study. Several values in a cell are separate wells, animals, samples, runs or records."}
{"data": "Block 1", "Compound": "c1ccc(Oc2ccc(Nc3c4c(nc5ccccc35)CCC4)cc2)cc1", "organism": "Leishmania donovani", "observed": "parasite killing", "strain": "DD8"}
{"test system": "promastigotes", "setting": "6.66 µM, 24 h", "inhibition": "85% and 84% and 86%"}
{"test system": "intracellular amastigotes", "setting": "80 µM, 72 h", "inhibition": "100%"}
{"test system": "intracellular amastigotes", "setting": "0.04 µM, 24 h", "inhibition": "13% and 9%"}
{"test system": "intracellular amastigotes", "setting": "40 µM, 48 h", "inhibition": "100%"}
{"test system": "intracellular amastigotes", "setting": "8 µM, 96 h", "inhibition": "100%"}
{"test system": "intracellular amastigotes", "setting": "8 µM, 72 h", "inhibition": "100%"}
{"test system": "intracellular amastigotes", "setting": "0.2 µM, 72 h", "inhibition": "28% and 33%"}
{"test system": "promastigotes", "setting": "33.33 µM, 24 h", "inhibition": "99% and 100%"}
{"data": "Block 2", "target": "Mitogen-activated protein kinase kinase kinase kinase 2 (MAP4K2, Homo sapiens, UniProt Q12851)", "observed": "enzyme activity", "mode": "inhibitor", "concentration": "0.5 µM", "baseline": "control", "Target sequence (Q12851 1-820)": "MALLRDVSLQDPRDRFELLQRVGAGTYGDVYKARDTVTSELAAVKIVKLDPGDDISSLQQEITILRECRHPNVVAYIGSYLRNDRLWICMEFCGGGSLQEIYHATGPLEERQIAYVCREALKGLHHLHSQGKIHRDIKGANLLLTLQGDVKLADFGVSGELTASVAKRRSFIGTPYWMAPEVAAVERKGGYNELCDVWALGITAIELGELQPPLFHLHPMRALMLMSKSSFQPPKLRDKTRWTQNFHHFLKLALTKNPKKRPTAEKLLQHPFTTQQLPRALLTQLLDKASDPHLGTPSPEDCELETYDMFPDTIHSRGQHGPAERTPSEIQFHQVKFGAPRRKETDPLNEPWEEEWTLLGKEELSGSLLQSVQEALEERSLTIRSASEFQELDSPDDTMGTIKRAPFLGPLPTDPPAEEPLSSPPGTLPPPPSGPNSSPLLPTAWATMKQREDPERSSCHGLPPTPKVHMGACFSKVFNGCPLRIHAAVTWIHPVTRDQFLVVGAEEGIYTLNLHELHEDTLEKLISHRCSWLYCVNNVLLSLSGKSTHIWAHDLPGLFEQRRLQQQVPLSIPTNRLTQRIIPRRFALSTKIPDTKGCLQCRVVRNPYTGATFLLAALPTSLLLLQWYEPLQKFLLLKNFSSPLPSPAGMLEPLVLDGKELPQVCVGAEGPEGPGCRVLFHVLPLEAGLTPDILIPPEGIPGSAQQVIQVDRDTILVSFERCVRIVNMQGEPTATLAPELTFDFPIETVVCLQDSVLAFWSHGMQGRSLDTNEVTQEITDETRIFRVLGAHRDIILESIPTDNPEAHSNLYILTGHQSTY"}
{"SMILES": "COc1cc2nccc(Oc3ccc(NC(=S)NC(=O)c4ccccc4C)cc3)c2cc1OC", "remaining activity": "92.9%"}
{"SMILES": "O=C(CCCc1ccc(-c2ccccc2F)cc1)Nc1ccc(O)cc1", "remaining activity": "104%"}
{"SMILES": "CNC(=O)c1cc(Oc2ccc(NC(=O)Nc3ccc(Cl)c(C(F)(F)F)c3)cc2)ccn1", "remaining activity": "108%"}
{"SMILES": "CN(C)c1ccc(C=C2C(=O)Nc3ccccc32)cc1", "remaining activity": "109%"}
{"SMILES": "O=C1NC(=O)C(c2cn(CCCn3ccnc3)c3ccccc23)=C1Nc1ccccc1", "remaining activity": "85.7%"}
{"SMILES": "O=c1c2ccccc2[nH]c(=S)n1CCN1CCC(=C(c2ccc(F)cc2)c2ccc(F)cc2)CC1", "remaining activity": "112%"}
{"SMILES": "Nc1ncnc2n[nH]c(Nc3ccc(F)cc3)c12", "remaining activity": "88.9%"}
{"SMILES": "Cn1sc(=O)n(Cc2ccccc2)c1=O", "remaining activity": "119%"}
{"SMILES": "COc1cc2ncnc(Nc3ccc(Oc4ccccc4)cc3)c2cc1OC", "remaining activity": "104%"}
{"SMILES": "CC(C)[C@H](CO)Nc1nc(Nc2cc(N)cc(Cl)c2)c2ncn(C(C)C)c2n1", "remaining activity": "90.7%"}
{"SMILES": "O=C1NC(=O)C(c2cn(CCCO)c3ncccc23)=C1c1cnccn1", "remaining activity": "67.4%"}
{"SMILES": "O=C(Nc1cccc(Nc2cc(Nc3cccc(C(F)(F)F)c3)ncn2)c1)C1CC1", "remaining activity": "116%"}
{"SMILES": "C#Cc1cccc(Nc2ncnc3cc(OCCOC)c(OCCOC)cc23)c1", "remaining activity": "105%"}
{"SMILES": "COc1ccc(OC)c2c(=S)c3ccccc3[nH]c12", "remaining activity": "96.5%"}
{"SMILES": "N#CC(C#N)=C(N)/C(C#N)=C/c1ccc(O)cc1", "remaining activity": "100%"}
{"SMILES": "Nc1ccc2ncnc(NCCc3ccc(Oc4ccccc4)cc3)c2c1", "remaining activity": "100%"}
{"data": "Block 3", "Structure (SMILES)": "CCCCNc1ncc(-c2ccc(CN3CCOCC3)cn2)c(NC2CCC(O)CC2)n1 (stereo not drawn)", "concentration": "1 µM", "baseline": "DMSO"}
{"cell line": "sample C colorectal tumour organoid", "setting": "replicate 1", "viability [%]": 87.6}
{"cell line": "sample C colorectal tumour organoid", "setting": "replicate 2", "viability [%]": 113}
{"cell line": "sample B colorectal tumour organoid", "setting": "replicate 1", "viability [%]": 118}
{"cell line": "sample B colorectal tumour organoid", "setting": "replicate 2", "viability [%]": 95.2}
{"cell line": "colorectal tumour organoids", "viability [%]": 106}
{"cell line": "sample BA colorectal tumour organoid", "viability [%]": 114}
{"data": "Block 4", "host": "mouse", "medium": "microsomes or S9", "concentration": "2 µM", "time": "0.5 h"}
{"Structure (SMILES)": "CC(C)Cn1ccnc1NC(=O)c1cnc(C(C)(C)C)s1", "remaining compound [%]": 25.3}
{"Structure (SMILES)": "COc1ccc(C2(C)CC(C)(C)Nc3ccccc32)cc1 (stereo not drawn)", "remaining compound [%]": 0.191}
{"Structure (SMILES)": "Cc1cc2cc(CCNC(=O)CC(C)(C)C)c(=O)[nH]c2cc1C", "remaining compound [%]": 0.00378}
{"Structure (SMILES)": "Cc1ccc(/C(Br)=C/CN(C)C)cc1", "remaining compound [%]": 7.82}
{"Structure (SMILES)": "Cc1cc2nc(NC(=O)N3CCN(c4cc(C(C)(C)C)cc(C(C)(C)C)c4)CC3)sc2cc1C", "remaining compound [%]": 28.2}
{"Structure (SMILES)": "CC(=O)Nc1nc2ccc(-c3nn(Cc4cc5ccccc5nc4-c4ccccc4C)c4nc(N)ncc34)cc2s1", "remaining compound [%]": 1.95}
{"Structure (SMILES)": "NC(N)=NC(=O)c1cc2cc(Br)ccc2s1", "remaining compound [%]": 17.5}
{"Structure (SMILES)": "CCn1ncc(Cl)c1-c1nc2c3cnn(C)c3ncn2n1", "remaining compound [%]": 100}
{"Structure (SMILES)": "Cc1nn2c(nnc3c(=O)n(-c4nnc[nH]4)ccc32)c1-c1ccccc1", "remaining compound [%]": 85.6}
